Experimental data of several laboratories.
Every numbered part comes from another study and shows a few of its results, in no order. Positions count from the first letter of the parent shown.

Study 1
Target: RNA binding protein fox-1 homolog 2, RRM domain, GST-SBP tag (RBFOX2, Homo sapiens, UniProt O43251-10, residues 100-194)
Method: RNA Bind-n-Seq
Molecule type: RNA
Medium: in vitro
Concentration: 365 nM
Notes: natural RNA segment, single round, ends assumed
Relative to: no-protein control
Direction: higher = stronger binding
Residues (chain): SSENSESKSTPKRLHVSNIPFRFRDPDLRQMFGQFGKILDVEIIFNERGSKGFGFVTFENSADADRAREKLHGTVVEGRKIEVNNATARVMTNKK
| Oligonucleotide | RBNS enrichment (R) |
| --- | --- |
| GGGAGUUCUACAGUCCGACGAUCCUAAGUUGUCAGCCCAACAGAGUUUGGUAGACCUUGGGGGUCCCUGGCUUAUCUCUCCACCCCAAACCUCCUUCCUGUCUGGUCCCCAGCCUGGGGGGGUUCUGAGCAGUUGGAAUUCUCGGGUGCCAA | 0.87 |
| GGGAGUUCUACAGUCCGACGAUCUGCUAUUAAAUCAUUUAGAAUGUUUACAUUUACUAAGGUGUGCUGGGUCAUGUAAAAUAUUAGACACUAAUAUUUUCAUAGAAAUUAGGCUGGAGAAAGAAGGAAGAAAUUGGAAUUCUCGGGUGCCAA | 0.345 |
| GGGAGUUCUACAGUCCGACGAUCCUUGUCAAGUGAAUUCUUUGCAUGUUCAAAACGGAAACCAUUGAUUAGAACUACAUUCUUUACCCCUUGUUUUAAUUUGAACCCCACCAUAUGGAUUUUUUUCCUUAAGAUGGAAUUCUCGGGUGCCAA | 1.69 |
| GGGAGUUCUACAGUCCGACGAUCACUUUGGGUCCGGAGGGCGAGACUCCGGCAGACGCAUUCCCGGGCAGGUGACCAAGCACGGUCCCUCGUGGGACUGGAUUCGCCAUUUUCUUAUAUCUGCUGCUAAAUCGUGGAAUUCUCGGGUGCCAA | 0.303 |
| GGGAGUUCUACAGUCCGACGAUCGGUGAGGCUGGGAGGAGGAAGACUGAGGUAGAGAUUCCAGGCCCUGGCAUAAGCUGAAUCCCAAAUUUGAGUUUGGGAAGAACCAGAGAGAAAUGGAUCCCUGAGCUCUGUGGAAUUCUCGGGUGCCAA | 1.03 |
| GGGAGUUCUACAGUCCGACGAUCAGCAUUUAAUGGGAUUAGCUGUAGUCACUGCUUAUGGGAAGAACCUCAGAUCAGCCCCUUAAAAUGAGUUCUAGAGCAGGUCUUCUGUUCCAGAAGGGGAGAAGCAUAGAUGGAAUUCUCGGGUGCCAA | 0.762 |
| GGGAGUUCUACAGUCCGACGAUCGUUGAUGAGGACCCAGAGCUGCUGCACACACUCACCUCUAACCCCCUCCCCUCGCUGCUGGGCCCCAUCUCCACAGGAGAGACUGGUUCAGCUCUAGGGCCUCAGUCUGGUGGAAUUCUCGGGUGCCAA | 0.818 |
| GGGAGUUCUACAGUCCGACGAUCAUUACUGUUCAGCAUCAUCUUGGUUAUAUACUGAAAAUCAAACACUUUACUACAGUUGUGAAUUAGUUUAAACCGUACAAUGUUGUUAUCAUAUCAUGCUUCAACUAUUAUGGAAUUCUCGGGUGCCAA | 0.347 |
| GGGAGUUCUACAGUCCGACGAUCUGCACGGAGGAGGCUAAGACUCCAUCUCGGCCUUUGAACUCAGAGAUCCCCCUGCCUCAGCCUCCAGAGUGCUGGGAUAAAAGGUGUGGGCCACCAAGCUAGGCUAAGAAUGGAAUUCUCGGGUGCCAA | 1.15 |
| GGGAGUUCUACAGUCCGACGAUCAAACGGGCUGCCCUAGUCAAGCCCAGUCCCUUCAACAGUAUGUCUGAUGCACCACAGGCCCUCCCUACUGGAAGUGGGAACUUCAAAUGGAAAUUGGAGCCAUCUUUUAUUGGAAUUCUCGGGUGCCAA | 0.711 |
| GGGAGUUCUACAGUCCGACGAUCACUGGGUGGACUUUCUCAAUUGCUCUGCCAGGAGGGAACAAGCCCAGAGGCUGAAGCUUCCCAGUAUUUAGAGGUGUGGUAGGGCAGUGUCUGCAUUCCCAGGAGACCCAUGGAAUUCUCGGGUGCCAA | 0.626 |
| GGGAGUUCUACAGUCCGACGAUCACAUCAUUGUGAGUUAGAUCAGUAUUAUGACCGCUGUCUUAGGGAAGGCCUGGGAACAGGAGUGUGCAGGCUGUCCUGAAGAGAGGCUGAGGACAGUGUGAAUAAUUGUAUGGAAUUCUCGGGUGCCAA | 1.53 |

Study 2
Target: Histone acetyltransferase KAT6A, both winged helices, GST fusion (KAT6A, Homo sapiens, UniProt Q92794, residues 1-181)
Method: protein binding microarray
Molecule type: double-stranded DNA, one strand shown
Medium: in vitro
Concentration: not given
Notes: 8-mer, flanks averaged, mean of 2 arrays, mostly near background
Relative to: not given
Direction: higher = stronger binding
Residues (chain): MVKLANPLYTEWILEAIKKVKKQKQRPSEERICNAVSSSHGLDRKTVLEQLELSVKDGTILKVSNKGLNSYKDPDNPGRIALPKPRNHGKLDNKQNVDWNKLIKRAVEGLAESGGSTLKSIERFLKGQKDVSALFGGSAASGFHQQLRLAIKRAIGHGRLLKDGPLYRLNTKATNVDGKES
| Oligonucleotide | E-score |
| --- | --- |
| CGCTGCCC | 0.143 |
| ATACACTA | -0.17 |
| AATCTGAC | -0.0823 |
| CGGTAGGA | 0.087 |
| ATCGCCAT | 0.0502 |
| ATATATGA | -0.0962 |
| CAAGAATA | -0.00343 |
| ACTCCAAC | -0.138 |
| AATTGAGA | -0.0308 |
| ATAGTCTC | -0.00983 |
| CCGTGCTA | 0.131 |
| GGAGCTCA | -0.0863 |
| CGGAGAGA | 0.0796 |
| GTGGCGAA | 0.0264 |
| GCCTACAA | -0.07 |
| GGTTTCAA | 0.0877 |
| ACTTCTAC | -0.145 |

Study 3
Target: CRIPT, C-terminal peptide
Method: DHFR complementation, deep sequencing
Medium: yeast
Notes: single substitutions, model-inferred values
Relative to: wild type
Direction: higher = weaker binding
Parent: ERBIN, PDZ domain 1 (human); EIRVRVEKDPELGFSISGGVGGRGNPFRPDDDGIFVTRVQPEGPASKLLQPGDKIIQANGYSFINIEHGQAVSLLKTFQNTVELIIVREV; partner TKNYKQTSV
| Change | binding free energy change |
| --- | --- |
| P41L | 0.329 kcal/mol |
| D9V | 0.519 kcal/mol |
| E89F | 0.0401 kcal/mol |
| I66D | 1.8 kcal/mol |
| T37V | 0.0546 kcal/mol |
| F14P | 0.713 kcal/mol |
| D32S | 0.109 kcal/mol |
| T81A | 0.0109 kcal/mol |
| L12Q | 1.24 kcal/mol |
| I2V | -0.056 kcal/mol |
| E11F | -0.491 kcal/mol |
| D30G | 0.232 kcal/mol |
| S46C | 0.0318 kcal/mol |
| A58V | 0.21 kcal/mol |
| Q57C | 0.00557 kcal/mol |
| Q79N | 0.0951 kcal/mol |
| G21Q | 0.225 kcal/mol |

Study 4
Target: TEF, bZIP domain (human)
Method: DHFR protein complementation
Medium: yeast
Notes: single substitutions, most at no-binding floor
Relative to: wild-type JUN-FOS pair
Direction: higher = stronger binding
Parent: JUN, bZIP domain (human); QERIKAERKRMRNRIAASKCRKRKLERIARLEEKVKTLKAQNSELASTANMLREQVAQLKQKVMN; partner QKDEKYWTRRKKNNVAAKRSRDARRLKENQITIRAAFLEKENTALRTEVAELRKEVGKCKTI
| Change | binding fitness |
| --- | --- |
| R53G | -1.49 natural log |
| S47E | -1.38 natural log |
| V35T | -1.52 natural log |
| A40D | -1.45 natural log |
| M51T | -1.18 natural log |
| Q55V | -1.49 natural log |
| A46C | -1.43 natural log |
| L45P | -1.55 natural log |
| R53M | -1.44 natural log |
| Q41K | -1.5 natural log |
| L31C | -1.49 natural log |
| R53W | -1.56 natural log |
| K39D | -1.47 natural log |
| Q41T | -1.56 natural log |
| E44F | -1.27 natural log |
| T37L | -1.43 natural log |
| A57G | -1.46 natural log |
| E54M | -1.48 natural log |
| A49S | -1.41 natural log |
| E44T | -1.31 natural log |
| E33R | -1.47 natural log |
| K39H | -1.54 natural log |
| L38W | -1.54 natural log |

Study 5
Target: Fragile X messenger ribonucleoprotein 1, C-terminal low-complexity region (Fmr1, Mus musculus, UniProt P35922)
Method: RNA Bind-n-Seq
Molecule type: RNA
Medium: in vitro
Concentration: 200 nM
Notes: whole 134-nt RNA, ends assumed
Together with: 150 mM LiCl
Relative to: input library
Direction: higher = stronger binding
Library: 7-deaza-guanosine replaces G
| Oligonucleotide | log2 enrichment |
| --- | --- |
| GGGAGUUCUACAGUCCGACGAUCUGUGUGCAUUCCCUGCGCCAAGGGCUUCCCCAGCUCUGAGCAGCUCAAUGCGCACGUGGAGACUCACACGGAGGAAGAGCUGUUCAUCAAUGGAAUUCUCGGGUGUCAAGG | -1.9 |
| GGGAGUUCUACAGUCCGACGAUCCAAGUCCUGUGCUACACAUCGUAUGUACCGAAUCGGCCCCGGGGCCCCGGCCCCGGAAAGUAUUAUGUUACGCCGUUCGGAUCUGCACUUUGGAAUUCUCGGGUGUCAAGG | -2.19 |
| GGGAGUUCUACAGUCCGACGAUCCUGUGCUACACAUCGUAUGUACCGAAUCAAAGUGUGUGUGUGUGUAAAGUGUGUGUGUAAAAAAGUAUUAUGUUACGCCGUUCGGAUCUGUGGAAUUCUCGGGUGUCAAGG | -1.5 |
| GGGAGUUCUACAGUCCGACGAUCACCAUGCAGGUGGGCAUCUUUGGGAAGUGGGGCAAGGGGGGGAUAGGGAGGGGGGUAACACUUUGGGAACAGGAGGUCCCAGGUCGUUUCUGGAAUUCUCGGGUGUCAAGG | 1.32 |
| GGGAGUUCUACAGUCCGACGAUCGUCCUGUGCUACACAUCGUAUGUACCGAAUCGGGUUUUUGGGGUUUUUGGGUUUUUGGAAAGUAUUAUGUUACGCCGUUCGGAUCUGCACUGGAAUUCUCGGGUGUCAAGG | -0.963 |
| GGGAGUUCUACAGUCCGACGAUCUCCUGUGCUACACAUCGUAUGUACCGAAUCGGUUUUUUGGGGUUUUUUGGGGUUUUUUGGAAAGUAUUAUGUUACGCCGUUCGGAUCUGCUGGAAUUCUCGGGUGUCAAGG | 0.337 |
| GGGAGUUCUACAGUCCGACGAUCACCAAAAAGGUGGGCAUCUUUGGGAAGUGGGGCAAGGGGGGGAUAGGGAGGGGGGUAACACUUUGGGAACAGGUGGUCCCAGGUCGUUUCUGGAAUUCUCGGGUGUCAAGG | 1.15 |
| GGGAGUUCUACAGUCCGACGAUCUGCAGCUCUCCGGCUGGGAUCCUGGUUGACGCCAUGUCCCAGAAGCACCUUCAGAUCAACCAGACAUUUGAGGAGCUGCGACUGGUCACGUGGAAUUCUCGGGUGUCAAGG | -2.49 |
| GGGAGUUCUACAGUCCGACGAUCUUGUGGAAAGGAGGAGAACCCCUGCUGAAAUUCGAGAGGAGUUUGAGCGGCUGCAGAGAGAGAGAGAAGAGAGGAGAUUGCAGCAGCGAAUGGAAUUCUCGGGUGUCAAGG | -0.895 |
| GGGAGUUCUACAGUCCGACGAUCAAGUCCUGUGCUACACAUCGUAUGUACCGAAUCGGGAAAAAAAGGGAAAGGGAGGGAAAGUAUUAUGUUACGCCGUUCGGAUCUGCACUUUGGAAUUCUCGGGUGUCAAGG | -0.212 |
| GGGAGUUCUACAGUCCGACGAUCAGUCCUGUGCUACACAUCGUAUGUACCGAAUCGGCCCCCGGGCCCCCGGCCCCCGGGGAAAGUAUUAUGUUACGCCGUUCGGAUCUGCACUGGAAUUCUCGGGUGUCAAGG | -1.36 |

Study 6
Target: CCNA1, cyclin fold, Cln2 fusion (human)
Method: yeast growth competition, sequencing
Medium: yeast
Notes: weak parent motif
Relative to: not given
Direction: higher = stronger binding
Parent: DTL docking peptide (human); PSSMRKICTYFHR
| Change | normalised enrichment score |
| --- | --- |
| F11A | 0.117 |
| R13A | -0.679 |
| C8A | -0.89 |
| R5A | -0.195 |
| S3A | -0.412 |
| P1A | -0.592 |
| S2A | -0.0695 |

Excerpt of the above (study 3):
| Change | binding free energy change |
| --- | --- |
| L12Q | 1.24 kcal/mol |
| E89F | 0.0401 kcal/mol |
| D9V | 0.519 kcal/mol |
| P41L | 0.329 kcal/mol |
| D32S | 0.109 kcal/mol |
| S46C | 0.0318 kcal/mol |
| T37V | 0.0546 kcal/mol |
| E11F | -0.491 kcal/mol |
| D30G | 0.232 kcal/mol |
| F14P | 0.713 kcal/mol |
| T81A | 0.0109 kcal/mol |
| I2V | -0.056 kcal/mol |
| Q79N | 0.0951 kcal/mol |
| A58V | 0.21 kcal/mol |
| Q57C | 0.00557 kcal/mol |
